{"data": "Results from different studies", "ABL1 F317I phosphorylated": "Tyrosine-protein kinase ABL1, phosphorylated (ABL1, Homo sapiens, UniProt P00519, F317I)", "ABL1 F317L": "Tyrosine-protein kinase ABL1 (ABL1, Homo sapiens, UniProt P00519, F317L)", "note": "“And” joins repeats or separate records; there may be more than shown.", "chain of UniProt P00519 (whole entry, unmodified, looked up)": "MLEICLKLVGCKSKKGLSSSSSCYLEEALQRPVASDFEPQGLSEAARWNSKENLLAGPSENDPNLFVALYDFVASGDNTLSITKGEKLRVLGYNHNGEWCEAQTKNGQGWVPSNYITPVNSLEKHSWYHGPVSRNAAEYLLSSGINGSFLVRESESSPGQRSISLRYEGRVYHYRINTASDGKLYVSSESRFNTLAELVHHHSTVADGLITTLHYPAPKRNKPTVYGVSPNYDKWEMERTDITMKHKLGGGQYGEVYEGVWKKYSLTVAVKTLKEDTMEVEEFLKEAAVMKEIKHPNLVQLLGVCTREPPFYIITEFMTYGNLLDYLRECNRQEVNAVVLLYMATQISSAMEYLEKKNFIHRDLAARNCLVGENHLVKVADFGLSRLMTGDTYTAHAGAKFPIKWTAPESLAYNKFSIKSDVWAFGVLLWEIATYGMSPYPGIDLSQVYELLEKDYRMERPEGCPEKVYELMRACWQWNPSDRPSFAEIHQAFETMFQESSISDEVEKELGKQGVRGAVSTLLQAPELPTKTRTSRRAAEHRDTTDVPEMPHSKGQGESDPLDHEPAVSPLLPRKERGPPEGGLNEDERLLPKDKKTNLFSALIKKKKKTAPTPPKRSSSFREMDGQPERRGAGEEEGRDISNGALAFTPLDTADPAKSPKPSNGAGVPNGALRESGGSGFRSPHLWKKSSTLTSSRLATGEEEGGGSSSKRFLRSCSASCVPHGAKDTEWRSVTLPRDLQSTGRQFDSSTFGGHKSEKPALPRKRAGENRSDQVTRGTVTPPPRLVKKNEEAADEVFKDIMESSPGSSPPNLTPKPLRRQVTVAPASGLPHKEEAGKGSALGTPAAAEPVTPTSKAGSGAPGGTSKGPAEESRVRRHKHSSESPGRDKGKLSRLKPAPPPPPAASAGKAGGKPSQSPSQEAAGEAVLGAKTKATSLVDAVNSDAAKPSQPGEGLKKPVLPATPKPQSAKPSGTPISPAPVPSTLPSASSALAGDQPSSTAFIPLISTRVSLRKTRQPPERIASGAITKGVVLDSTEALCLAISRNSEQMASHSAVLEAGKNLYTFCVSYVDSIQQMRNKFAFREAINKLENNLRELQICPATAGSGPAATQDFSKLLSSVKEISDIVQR"}
{"Structure (SMILES)": "CNC1C[S+]2CC[S+]3CC[S+](C1)[Ru-4]321([N]=C=S)[n]2c3ccc(OC)cc3c3c4c(c5cc(F)c[n+]1c5c32)C(=O)NC4=O (centres unmarked)", "target": "ABL1 F317I phosphorylated", "test": "KinomeScan", "setting": "0.1 µM", "how to read": "baseline: untreated", "endpoint": "remaining binding", "value": "73%"}
{"Structure (SMILES)": "C=CC(=O)N1CCCC(n2c(=O)c3ncccc3n(Cc3ccc(Oc4ccccc4)cc3)c2=O)C1 (centres unmarked)", "target": "ABL1 F317L", "test": "kinase activity", "setting": "1 µM", "endpoint": "remaining activity", "value": "81%"}
{"Structure (SMILES)": "C=CC(=O)N1CCc2ccc(-n3c(=O)ccc4cnc5ccc(-c6cnn(C)c6)cc5c43)cc21", "target": "Tyrosine-protein kinase ABL1, phosphorylated (ABL1, Homo sapiens, UniProt P00519)", "test": "KINOMEscan", "setting": "1 µM", "how to read": "baseline: DMSO control", "endpoint": "remaining binding", "value": "72%"}
{"Structure (SMILES)": "Cc1ccc(-c2c(/C=C(\\C#N)C(=O)NC(C)C)n(CCCO)c3ncnc(N)c23)cc1", "target": "Tyrosine-protein kinase ABL1, non-phosphorylated (ABL1, Homo sapiens, UniProt P00519, F317L)", "test": "binding, competition with immobilised ligand", "setting": "1 µM", "endpoint": "remaining binding", "value": "97%"}
{"Structure (SMILES)": "COc1cc(Nc2nccc(-c3cnn4nc(OC)ccc34)n2)cc(C(F)(F)F)c1", "target": "ABL1 F317I phosphorylated", "test": "binding", "setting": "1 µM", "endpoint": "remaining binding", "value": "83%"}
{"Structure (SMILES)": "Cc1cnc2nc1Nc1cccc(c1)COC/C=C/COCc1cc(ccc1OCCN1CCOCC1)N2", "target": "ABL1 F317L", "setting": "0.1 µM", "how to read": "baseline: DMSO control", "endpoint": "remaining binding", "value": "62% and 93%"}
{"Structure (SMILES)": "CCN1CCN(Cc2ccc(C(=O)Nc3ccc(C)c(NCc4cnc5[nH]ccc5c4OC)c3)cc2C(F)(F)F)CC1", "target": "ABL1 F317I phosphorylated", "test": "binding, competition with immobilised ligand", "setting": "1 µM", "endpoint": "remaining binding", "value": "32%"}
{"Structure (SMILES)": "Nc1ncc2c(n1)-c1c([nH]c3ccc(C4=CCOCC4)cc13)CCC2", "target": "Tyrosine-protein kinase ABL1, phosphorylated (ABL1, Homo sapiens, UniProt P00519, E255K)", "test": "binding, competition with immobilised ligand", "setting": "1 µM", "endpoint": "remaining binding", "value": "100%"}
{"note": "Repeated from above:"}
{"Structure (SMILES)": "C=CC(=O)N1CCc2ccc(-n3c(=O)ccc4cnc5ccc(-c6cnn(C)c6)cc5c43)cc21", "target": "Tyrosine-protein kinase ABL1, phosphorylated (ABL1, Homo sapiens, UniProt P00519)", "test": "KINOMEscan", "setting": "1 µM", "how to read": "baseline: DMSO control", "endpoint": "remaining binding", "value": "72%"}
